Published values pooled from the literature.
Parts stem from different laboratories: compare values within a part only. Substitutions count along the parent as printed.

Sample 1
Target: RING finger protein unkempt homolog, zinc fingers 1-6, SBP tag (UNK, Homo sapiens, UniProt Q9C0B0, residues 30-357)
UniProt Q9C0B0, sequence (30-357, looked up): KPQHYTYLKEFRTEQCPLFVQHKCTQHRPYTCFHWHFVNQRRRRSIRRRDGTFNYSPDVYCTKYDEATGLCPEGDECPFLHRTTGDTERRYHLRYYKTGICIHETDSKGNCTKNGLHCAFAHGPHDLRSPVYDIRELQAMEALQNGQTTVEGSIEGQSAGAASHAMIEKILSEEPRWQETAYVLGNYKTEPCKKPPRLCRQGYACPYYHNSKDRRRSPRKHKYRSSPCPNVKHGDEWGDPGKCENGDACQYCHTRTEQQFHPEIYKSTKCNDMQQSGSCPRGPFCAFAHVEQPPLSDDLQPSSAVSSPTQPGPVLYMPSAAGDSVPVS
Technique: RNA Bind-n-Seq
Form: RNA
Matrix: in vitro
Concentration: 100 nM
Setting: RNA with constant flanks, vertebrate orthologous sites, ends assumed
Relative to: input RNA pool
Reading: higher = stronger binding
Quantity: bound/input enrichment
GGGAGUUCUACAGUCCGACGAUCUACUUCUGGUGAUAUCUGGCCUGGCCUUUCAGCUUAUGAUAAUAGUCCCAGAUCACCCCAUAGUCCUUCACCGAUUGCUACUCCACCUAGUCAGAGUUCAUCUUGUUCUGAUGCUCCCAUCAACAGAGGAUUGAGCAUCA: 0.946 ratio
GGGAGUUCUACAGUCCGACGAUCCAUGUCCUUUUUACUGUGGUAUUCAGAACAACCACAGUACUCACUUUUUCCAAAUGAUUCUAGUAAUUGCCUAGAAAUAUCUUUUUCUUACCUGUUAUUUAUCAAUUUUUCCCAGUAUUUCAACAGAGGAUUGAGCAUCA: 1.4 ratio
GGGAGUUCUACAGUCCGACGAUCAUUGUGGCUGCUUUUUACCGCCUCAAUGAGGUAAAGUCUCCCUUGGCAUUUGGUUGGUACUGGAGCCACUCAUACCUAAUAAGUCCUUCUGCUUUUCAUUUCUUUCACACUCAUAGUCAUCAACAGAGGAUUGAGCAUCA: 0.812 ratio
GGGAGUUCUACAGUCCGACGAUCCAUUGUAUCCUGCUGUAUAAUAAACAAUCUUAGACAUUUAUCAACUAUUGAUACAAAUGUUAGUCCCUAACCACUUUUUAUAUGUUUUAAAUUUUUGAAAUUCAAGUGUACCUGCCAUAACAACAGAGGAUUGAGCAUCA: 2.67 ratio
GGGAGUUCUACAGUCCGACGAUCCAGUAGAAUUACACUAAUACUGAAGUUAAAAGGAUAUCCAAGGUGAUGAUAAAGUGUGUGUUGGUAGUUACUAAAAAAACUUUAGCUGUUAUUGCCUUGUAUUUCUAUCCCUUGUUUCAGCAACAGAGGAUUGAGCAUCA: 0.321 ratio
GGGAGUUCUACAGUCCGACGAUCCAUGACCUUGUUACUGUGAUAUUUAAAGUAUCUACAGUACUCACUUUCUCCAAAUGAUUCUAGUAAUUUGCCUAGAGAUAACUUUCUCUGACCUGUUAUUUAUCAAUUUUUCCCAGUAUUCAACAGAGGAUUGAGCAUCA: 0.623 ratio
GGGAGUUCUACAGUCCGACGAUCGCCCCAGUGUGUGUGUGCAUUACAUUCCUCUCUGUUCUGCUGAAGGGAAAAAAGAGACAUUUUAACCUUUUUAAGGUUAUUGACUUAAUUUUAUGUUAUUUGGUUGCAUGAAGUUGCCCUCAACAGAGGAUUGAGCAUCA: 0.533 ratio
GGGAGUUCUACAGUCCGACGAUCAUUUAAAAUGUAGUUAGUUAUAUUUAAUGACCUCAUUCCUAAGUUCCUUUUUCGUUAAUGUAGCUUUCAUUUCUGUUAUUGCUGUUUGAAUAAUAUGAUUAAAUAGAAGGUUUGUGCCAGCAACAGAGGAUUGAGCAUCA: 0.572 ratio
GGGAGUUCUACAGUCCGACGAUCAAAAAUGGCCUCUGCUCUAUUAAAAAGUAGGAACAGUCCUGCAAAUAUGAAGGUCCUAAAUAGCUAUUUUUGAAAUUAAAAAGUUUAAAUUUUGUAAAUCAGCUGUUGCUACUCCAUGACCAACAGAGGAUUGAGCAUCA: 0.35 ratio
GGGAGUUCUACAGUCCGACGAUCCUGUAUGGCCCUCGCAGAGUUGAAAUAAUGGAAGAGGAAAGUGAAUAGUAAUCUUCAUUCUAGUAUUUAUGCUUAGGUGUGAAAUAAAUGUUAUUUGUUGAUCAUUUCUAUAACCCAGAGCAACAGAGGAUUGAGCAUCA: 0.371 ratio
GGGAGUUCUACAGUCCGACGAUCUCUAGGUGGGGGUAACCAUUAACAUAUUUAAAUAAAGAAAAGAAGUGCUGAAAAUCAUGUUAGUCCUAAGUUUAGUUAGAGAAUUUACAUAAGCCUCUUUUAGGUAAUUCUAAAAUUGAACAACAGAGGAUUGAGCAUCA: 1.72 ratio

Sample 2
Target: Ras GTPase-activating protein-binding protein 1, full length (G3BP1, Homo sapiens, UniProt Q13283)
UniProt Q13283, sequence (whole entry, looked up): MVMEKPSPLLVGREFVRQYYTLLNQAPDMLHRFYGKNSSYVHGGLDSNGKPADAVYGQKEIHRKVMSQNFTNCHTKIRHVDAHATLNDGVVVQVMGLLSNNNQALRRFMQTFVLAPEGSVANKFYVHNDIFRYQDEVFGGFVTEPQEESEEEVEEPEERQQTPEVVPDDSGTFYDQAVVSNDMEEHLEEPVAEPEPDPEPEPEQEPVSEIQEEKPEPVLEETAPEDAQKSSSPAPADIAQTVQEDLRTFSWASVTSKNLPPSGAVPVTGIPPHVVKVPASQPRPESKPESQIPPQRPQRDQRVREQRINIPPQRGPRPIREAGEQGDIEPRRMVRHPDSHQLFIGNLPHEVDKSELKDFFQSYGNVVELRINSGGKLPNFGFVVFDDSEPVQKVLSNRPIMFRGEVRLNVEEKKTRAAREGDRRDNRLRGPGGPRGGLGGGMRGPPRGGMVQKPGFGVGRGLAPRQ
Technique: RNA Bind-n-Seq
Form: RNA
Matrix: in vitro
Concentration: 200 nM
Setting: whole 134-nt RNA, ends assumed
With: 150 mM LiCl
Relative to: input library
Reading: higher = stronger binding
Quantity: log2 enrichment
Each molecule: 7-deaza-guanosine replaces G
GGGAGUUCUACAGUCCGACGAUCGUCCUGUGCUACACAUCGUAUGUACCGAAUCGGUUUUUGGGUUUUUGGGGUUUUUGGGGAAAGUAUUAUGUUACGCCGUUCGGAUCUGCAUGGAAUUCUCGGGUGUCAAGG: -0.427
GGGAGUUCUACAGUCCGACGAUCUAACUUUAGAGGAGGAUCUGAUGGAUAUGGCAGUGGACGUGGAUUUGGGGAUGGCUAUAAUGGGUAUGAAGGAGGACCUGGAGGUGGCAAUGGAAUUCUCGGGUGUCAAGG: -0.209
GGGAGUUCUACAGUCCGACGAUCUGCGUGCUUGUGUCCUGGAGCUGGAAGAGCGGCUGAGCACGCAGGAGGGCUUGGUGCAAGAGCUUCAGAAAAAACAGGUGGAAUUGCAGGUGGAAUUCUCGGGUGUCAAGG: 0.667
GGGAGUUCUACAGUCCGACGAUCAAGUCCUGUGCUACACAUCGUAUGUACCGAAUCGGGCCCCGGGCCCCGGGGCCCCGGAAAGUAUUAUGUUACGCCGUUCGGAUCUGCACUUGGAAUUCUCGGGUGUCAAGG: -0.0682
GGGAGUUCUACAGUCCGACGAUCCCUGUGCUACACAUCGUAUGUACCGAAUCGGGCCCCCCGGGCCCCCCGGGGCCCCCCGGGAAAGUAUUAUGUUACGCCGUUCGGAUCUGCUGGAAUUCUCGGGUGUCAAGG: -1.45
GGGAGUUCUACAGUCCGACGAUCCCUGUGCUACACAUCGUAUGUACCGAAUCGGCCCCCCCGGCCCCCCCGGGGCCCCCCCGGAAAGUAUUAUGUUACGCCGUUCGGAUCUGCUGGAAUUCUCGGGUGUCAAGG: 0.287
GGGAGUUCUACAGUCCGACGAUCCAAGUCCUGUGCUACACAUCGUAUGUACCGAAUCGGAGGAAAAAGGUUUUUUUGGAAAGUAUUAUGUUACGCCGUUCGGAUCUGCACUUCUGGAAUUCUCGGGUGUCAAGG: -0.805
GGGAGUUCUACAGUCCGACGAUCCCUCAAGUCCUGUGCUACACAUCGUAUGUACCGAAUCGGGGAGGGGAGGGAGGAAAGUAUUAUGUUACGCCGUUCGGAUCUGCACUUCCAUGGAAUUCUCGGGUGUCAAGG: 0.0452
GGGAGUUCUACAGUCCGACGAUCUGGGAGGUGGAUUUUGUUUAUUUUUUUAGCUCAUUUCCAGGGGUGGGAAUUGUUUUUUAAUAUGUGUCAUGAAUAAAGUUGUUUUUGAAAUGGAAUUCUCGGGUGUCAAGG: -0.369
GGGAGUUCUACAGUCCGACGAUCUCCUGUGCUACACAUCGUAUGUACCGAAUCGGGAAAAAGGGUUUUUGGGAAAAAAAGGGAAAGUAUUAUGUUACGCCGUUCGGAUCUGCAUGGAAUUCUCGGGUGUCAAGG: -0.259
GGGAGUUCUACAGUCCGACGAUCUGGGAGGUUGAUUUUGUUUAUUUUUUUAGCUCAUUUCCAGGGGUGGGAAUUUUUUUUUAAUAUGUGUCAUGAAUAAAGUUGUUUUUGAAAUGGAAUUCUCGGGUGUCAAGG: -0.115

Sample 3
Target: Sal-like protein 4, full length isoform B (SALL4, Homo sapiens, UniProt Q9UJQ4-2, residues 1-616)
Technique: universal PBM
Form: double-stranded DNA, one strand shown
Matrix: in vitro
Concentration: not given
Setting: 8-mer, flanks averaged, mean of replicates
Reading: higher = stronger binding
Quantity: E-score
GATATCAC: 0.187
GACAGTAA: 0.11
ATCACGCG: 0.012
CTCGCGTC: -0.223
CGTCGAGC: -0.185
AAGACGAA: 0.182
AGAATTTC: -0.0441
ACAGACTA: 0.022
AGTCGCCA: -0.272
ACTGTACC: -0.0448
ACCAGTCG: -0.0804
TATCCCCA: 0.12
AATAGCGC: 0.115
CATGCAGC: -0.0851
CGCGTATA: 0.162
GGAGGCAA: -0.248
AAGTGGTG: -0.0247
GTGCGTAA: -0.0759

Sample 4
Target: ABI1, truncated, D143A, DHFR fusion (Arabidopsis thaliana)
Technique: DHFR PCA, deep sequencing
Matrix: yeast
Setting: methotrexate growth selection, single substitutions
With: (+)-ABA 2500 µM
Relative to: wild-type fitted maximum
Reading: higher = stronger binding
Quantity: relative binding score
Parent: PYL1, truncated, DHFR fusion (Arabidopsis thaliana); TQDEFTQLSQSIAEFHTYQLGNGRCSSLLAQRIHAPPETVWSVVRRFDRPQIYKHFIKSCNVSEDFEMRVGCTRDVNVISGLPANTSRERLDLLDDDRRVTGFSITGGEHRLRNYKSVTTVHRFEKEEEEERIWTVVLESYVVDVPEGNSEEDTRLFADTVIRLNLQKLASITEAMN
T154M: 92.8%
G108I: 52.1%
D75K: 102%
P37E: 95.9%
F157C: 66.4%
V100T: 95.3%
Q10P: 104%
N165K: 73.1%
P37V: 97.4%
R113Q: 117%
V137D: -1.58%
P37W: 82.1%
P36A: 101%
A175P: 95.2%
P50H: -1.54%
N165Q: 65.4%
T86S: 96.1%
A13F: 98.6%
K116R: 98.3%
T119H: 57.4%
Q10G: 103%
Q51R: 85%
K54E: -14.5%
R69K: 93.8%
V161L: 98.4%

For quick reference, copied from above (sample 3):
GGAGGCAA: -0.248
AAGTGGTG: -0.0247
AGAATTTC: -0.0441
GATATCAC: 0.187
CTCGCGTC: -0.223
CGTCGAGC: -0.185
AATAGCGC: 0.115
